Measurements from different studies.
Protocols differ between the studies behind these lines. ± marks the error that the study gave.

COCCOCCOCCOCCOCCOCCOCCOCCC(=O)NCCCc1cc2cc3nc(cc4[nH]c(cc5nc(c(OC)c1[nH]2)C(=O)C5(C)C)cc4CCc1ccc(C(=O)O)cc1)CC3(C)C
kf^−1 (water with 5% DMF; room temperature): 37 ns

CC(C)C[C@@H](NC(=O)[C@H](NC(=O)[C@H]1CCCN1)[C@H](C)O)C(=O)N[C@H](Cc1c[nH]cn1)C(=O)N[C@@H](C(=O)N[C@H](Cc1c[nH]cn1)C(=O)N[C@H](CC(N)=O)C(=O)N[C@H](CCCNC(=N)N)C(=O)N[C@H](CCCNC(=N)N)C(=O)N[C@H](CCCNC(=N)N)C(=O)N[C@H](CCCNC(=N)N)C(=O)N[C@H](CCCNC(=N)N)C(N)=O)[C@H](C)O
AUC fraction, half-life up to 3 h (Beagle dog, plasma; oral, 20 or 50 mg/kg, single dose): > 75%

CCc1c2c(nc3ccc(O)cc13)-c1cc3c(c(=O)n1C2)COC(=O)[C@]3(O)CC
Tmax (human patients, plasma; intravenous, 24 mg/m^2 of parent drug): 0.98 h

CCc1cc2c(N3CCN([11C](=O)c4ccc(-c5ccccc5)cc4)CC3)nc(N3CCNC(=O)C3)nc2s1
SUVmax (PET; Wistar rats, male, brain; intravenous, baseline): 0.04

NCC(=O)N1CCC[C@H]1C(=O)N1C[C@H](O)C[C@H]1C(=O)O
log beta (potentiometric titration; 40 °C, together with: Fe(III)): 14.2

NC12CNCCNCC(NCc3ccc(CNC(=O)CCCC(=O)NCc4ccc(-c5nncnn5)cc4)cc3)(CNCCNC1)CNCCNC2.[64Cu+2]
mean absorbed dose (OLINDA dosimetry; red marrow; pretargeting, 48-h interval): 0.028 rad/mCi

COc1cc(C(=O)COC(=O)CCCN)cc(OC)c1O
singlet lifetime (pump-probe transient absorption; 10% acetonitrile in water): 3.7 ps

O=C([O-])c1cccc(CN(CCN(Cc2cn(Cc3ccccc3)nn2)Cc2cccc(C(=O)[O-])n2)Cc2cn(Cc3ccccc3)nn2)n1.[64Cu+2]
tracer uptake (mouse, intestine; intravenous, 4 h): 21.1 %ID/g

O=C([O-])CN1CCN(CC(=O)[O-])CCN(CC(=O)c2ccc(-c3ccc(OCC(=O)O)cc3)cc2)CCN(CC(=O)[O-])CC1.[Eu+3]
Eu3+ emission quantum yield (PBS): 0.075

CC(=O)N[C@H](CCCCN)C(=O)N[C@H](CC(C)C)C(=O)N[C@H](CCCCN)C(=O)N[C@H](CO)C(=O)N[C@H](CC(C)C)C(=O)N[C@H](CC(C)C)C(=O)N[C@H](CCCCN)C(=O)N[C@@H](C(=O)N[C@H](CC(C)C)C(=O)N[C@H](CO)C(=O)N[C@H](CCCCN)C(=O)N[C@H](C)C(=O)N[C@H](CCCCN)C(=O)N[C@H](CCCCN)C(=O)N[C@H](CCCCN)C(=O)N[C@H](CC(C)C)C(=O)N[C@H](CC(C)C)C(=O)N[C@H](CCCCN)C(=O)N[C@@H](C(=O)N[C@H](C)C(=O)N[C@H](CC(C)C)C(=O)N[C@H](CCCCN)C(=O)N[C@H](C)C(=O)N[C@H](CC(C)C)C(=O)N[C@H](CO)C(=O)N[C@H](CCCCN)C(N)=O)[C@H](C)O)[C@H](C)O
helical content (circular dichroism; benign buffer; pH 7.0, 5 °C; reference: 50% trifluoroethanol): 11%

CC[C@H](C)[C@H](NC(=O)[C@H](N)Cc1ccc(O)cc1)C(=O)N[C@H]1CSSC[C@@H](C(=O)N(C)[C@H](C(N)=O)[C@@H](C)CC)NC(=O)[C@H](CCCNC(=N)N)NC(=O)[C@H](Cc2c[nH]cn2)NC(=O)[C@H](C)NC(=O)CN(C)C(=O)[C@H](Cc2c[nH]c3ccccc23)NC(=O)[C@H](CC(=O)O)NC(=O)[C@H](CCC(N)=O)NC(=O)[C@H](Cc2cn(C)c3ccccc23)NC(=O)[C@H](C(C)C)NC1=O
recovery (UPLC-ESI-MS; human plasma; 3.58 µg/mL, 48 h, 4 °C, autosampler after SPE): 99.4 ± 0.3%

Cc1cc(O)c(C=O)c2c1C(=O)Oc1c(CO)c(O)c3c(c1O2)C(O)OC3=O (stereo not drawn)
IC50 (protein glycation; bovine serum albumin; 6 days, together with: D-fructose): 218 ± 7.25 nM

COc1cc(NC(C)=O)c2c(c1O)-c1c(OC)c(OC)cc3c1C(C2)N(C)CC3 (stereo not drawn)
remaining compound (rat, plasma; 100 µg/mL, 40 d, -20 °C, long-term storage): 96.8 ± 5.6%

CC(C)[C@H](NC(=O)[C@@H]1CCCN1C(=O)[C@H](CCCNC(=N)N)NC(=O)[C@H](CS)NC(=O)[C@H](Cc1c[nH]c2ccccc12)NC(=O)[C@H](CCCNC(=N)N)NC(=O)[C@@H](Cc1ccccc1)NC(=O)[C@H](Cc1c[nH]cn1)NC(=O)[C@H](CCC(=O)O)NC(=O)[C@H](CS)NC(=O)[C@H](CS)NC(=O)CNC(=O)[C@@H]1CC(=O)N[C@@H](CCCNC(=N)N)C(=O)NCC(=O)N[C@@H](CC(=O)O)C(=O)N[C@H](Cc2ccc(O)cc2)C(=O)N1)C(N)=O [technetium-99m labelled]
tumour to tissue ratio (C57 mouse, female, B16/F1 melanoma; intravenous, 0.037 MBq, 0.5 h; reference: tumour over lung): 1.26

[11CH3]N1CCN(CCCOc2ccc(=O)n(-c3ccc(Cl)c(Cl)c3)n2)CC1
uptake (PET-CT; BALB/c mouse male, heart; intravenous, dose not given, 5 min): 5.1 ± 0.68 %ID/cc

C=CC(=O)Nc1cc(Nc2nccc(-c3cn(C4CC4)c4ccccc34)n2)c(OC)cc1N(C)CCNC
excreted amount (radio-HPLC; human male, feces; oral, 110 mg, 0 to 48 h, sample holds 45.32% dose; reference: dose): 5.57%

NC(=O)[C@H](Cc1ccccc1)N[11C](=O)OCc1ccccc1
intact compound (male Wistar rat, spinal cord supernatant; intravenous, 32.8 MBq, 15 min): 97.6%

COC(=O)C(c1ccccc1Cl)N1CCC(SCC(=O)c2cccc(OC)c2)C(=CC(=O)O)C1 (mixture of isomers)
storage stability time (feline citrate plasma; -80 °C): ≥ 9 months

NC(=O)/C=C/c1cccc(S(=O)(=O)Nc2ccccc2)c1
half-life (human, moderate liver dysfunction, plasma; intravenous, 400 mg/m^2 belinostat, 30 min infusion, cycle 1 day -7): 8.1 h

COc1cc(N(C)CCN(C)C)c(NC(=O)CCSCC(N)C(=O)O)cc1Nc1nccc(-c2cn(C3CC3)c3ccccc23)n1 (stereo not drawn)
excreted amount (radio-HPLC; human, feces; 48 to 96 h, sample holds 20.06% dose; reference: dose): 0.39%

N=C(N)NCCC[C@@H]1NC(=O)[C@H](Cc2c[nH]c3ccccc23)NC(=O)[C@@H](CC2CCCCC2)NC(=O)[C@@H]2CCCN2C(=O)[C@@H](NC(=O)CCc2ccccc2)CCCNC1=O
oral absorption (C57BL/6J mice, urine; reference: oral over intravenous): ~20%

C#CCOc1ccc(/C=C2\SC(=O)N(CC(=O)NCc3ccccc3)C2=O)cc1
Kirkwood-Buff integral G2,3 (inverse Kirkwood-Buff integrals; binary solvent mixture; 298.15 K, mole fraction x1 0.65): -366 cm³/mol

O=C(O)CN1CCCN2CCN(CC1)CCN(CC(=O)O)CC2 [copper-64 labelled]
liver clearance (rat, male, juvenile Lewis; intravenous, 100 µCi, 24 h): 66.4%

CC(C)(O)c1ncc([S@](N)(=O)=NC(=O)Nc2c3c(cc4c2CCC4)CCC3)s1
Cmax (healthy human; oral, 100 mg once daily, day 14, spray-dried dispersion, geometric mean): 12700 ng/mL

Cc1ccc(-c2ccc(-c3cc4sccc4o3)cn2)nc1
radiative decay rate constant (TCSPC; water, HEPES 100 mM; pH 7.4): 0.23 ns⁻¹

Cc1[nH]c(/C=C2\C(=O)Nc3ccc(F)cc32)c(C)c1NC(=O)CCN1CCN(C)CC1
AUC extrapolated share (Beagle dog (both sexes), plasma; oral, 3 mg/kg, single dose tablet): 1.96 ± 1.2%

Cn1c(=O)oc2ccc(-c3ccc(CC(C#N)NC(=O)C4CNCCCO4)c(F)c3)cc21 (stereo not drawn)
treatment-emergent adverse event incidence (item: blood bilirubin increased; human volunteers; oral, dose not given): 3.7%

Cc1ccc(OCC(=O)N(Cc2cccs2)c2ccn[nH]2)cc1
clearance (male beagle dog, plasma; intravenous, 1 mg/kg, single dose): 18.4 mL/min/kg

CN(C(=O)Cn1c(=O)oc2ccc(-c3ccc(OCC[18F])cc3)cc21)c1ccccc1
intact parent fraction (ischemic Sprague-Dawley rats, brain; intravenous, 10 MBq radiolabelled, 30 min): 83.2 ± 7.4%

CC(=O)N[C@H](CSSC[C@H](N)C(=O)O)C(=O)N[C@H](C)C(=O)N[C@H](CCCNC(=N)N)C(=O)N[C@H](CCCNC(=N)N)C(=O)N[C@H](CCCNC(=N)N)C(=O)N[C@H](C)C(=O)N[C@H](CCCNC(=N)N)C(N)=O
volume of distribution at steady state (human, healthy males, plasma; intravenous, 0.5 mg, geometric mean): 112 L

NC[C@@H](C(=O)Nc1ccc(-c2cn[nH]c2)cc1)c1ccccc1
total eye irritation score (OECD 405 eye irritation; New Zealand White rabbit, eye; topical, 0.1%, 73 h (day 4); direction not given): 1

CC12CC(c3ccc(S(C)(=O)=O)cc3)C3C4=C(CCC3C1CCC2(O)C(F)(F)C(F)(F)F)C(=O)C(O)CC4 (stereo not drawn)
excreted amount in feces (human; oral, 5 mg, mean of six subjects; reference: dose): 0.6 to 7%

COc1cccc([O-])c1C=NCCCN(C)CCN(C)CCCN=Cc1c([O-])cccc1OC.[67Ga+3]
tissue uptake ratio (rat; intravenous, 2 h; reference: heart over blood): 37.9 ± 3.5

Some of these lines once more:
CC(=O)N[C@H](CSSC[C@H](N)C(=O)O)C(=O)N[C@H](C)C(=O)N[C@H](CCCNC(=N)N)C(=O)N[C@H](CCCNC(=N)N)C(=O)N[C@H](CCCNC(=N)N)C(=O)N[C@H](C)C(=O)N[C@H](CCCNC(=N)N)C(N)=O
volume of distribution at steady state (human, healthy males, plasma; intravenous, 0.5 mg, geometric mean): 112 L

CC[C@H](C)[C@H](NC(=O)[C@H](N)Cc1ccc(O)cc1)C(=O)N[C@H]1CSSC[C@@H](C(=O)N(C)[C@H](C(N)=O)[C@@H](C)CC)NC(=O)[C@H](CCCNC(=N)N)NC(=O)[C@H](Cc2c[nH]cn2)NC(=O)[C@H](C)NC(=O)CN(C)C(=O)[C@H](Cc2c[nH]c3ccccc23)NC(=O)[C@H](CC(=O)O)NC(=O)[C@H](CCC(N)=O)NC(=O)[C@H](Cc2cn(C)c3ccccc23)NC(=O)[C@H](C(C)C)NC1=O
recovery (UPLC-ESI-MS; human plasma; 3.58 µg/mL, 48 h, 4 °C, autosampler after SPE): 99.4 ± 0.3%
